Measured values collected from several papers.
Each numbered part is a random draw from the data of one study; scales do not carry over between parts. Several values in a cell are separate wells, animals, samples, runs or records.
UniProt P25911, sequence (whole entry, looked up): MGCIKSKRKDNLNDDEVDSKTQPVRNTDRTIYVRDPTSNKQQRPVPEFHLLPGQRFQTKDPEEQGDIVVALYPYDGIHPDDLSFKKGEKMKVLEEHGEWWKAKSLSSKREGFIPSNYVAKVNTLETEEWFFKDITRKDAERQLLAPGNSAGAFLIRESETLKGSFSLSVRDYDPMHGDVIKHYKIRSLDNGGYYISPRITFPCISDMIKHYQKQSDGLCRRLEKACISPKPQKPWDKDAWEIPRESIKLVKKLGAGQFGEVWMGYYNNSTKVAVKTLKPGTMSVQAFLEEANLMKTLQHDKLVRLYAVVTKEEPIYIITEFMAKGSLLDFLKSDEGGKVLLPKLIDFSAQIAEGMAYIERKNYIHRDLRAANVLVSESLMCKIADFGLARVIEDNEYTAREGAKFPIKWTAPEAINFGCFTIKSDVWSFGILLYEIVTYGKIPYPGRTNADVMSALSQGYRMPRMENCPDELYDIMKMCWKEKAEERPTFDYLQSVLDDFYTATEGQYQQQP

Sample 1
Target: Inhibitor of nuclear factor kappa-B kinase subunit alpha (CHUK, Homo sapiens, UniProt O15111)
UniProt O15111, sequence (whole entry, looked up): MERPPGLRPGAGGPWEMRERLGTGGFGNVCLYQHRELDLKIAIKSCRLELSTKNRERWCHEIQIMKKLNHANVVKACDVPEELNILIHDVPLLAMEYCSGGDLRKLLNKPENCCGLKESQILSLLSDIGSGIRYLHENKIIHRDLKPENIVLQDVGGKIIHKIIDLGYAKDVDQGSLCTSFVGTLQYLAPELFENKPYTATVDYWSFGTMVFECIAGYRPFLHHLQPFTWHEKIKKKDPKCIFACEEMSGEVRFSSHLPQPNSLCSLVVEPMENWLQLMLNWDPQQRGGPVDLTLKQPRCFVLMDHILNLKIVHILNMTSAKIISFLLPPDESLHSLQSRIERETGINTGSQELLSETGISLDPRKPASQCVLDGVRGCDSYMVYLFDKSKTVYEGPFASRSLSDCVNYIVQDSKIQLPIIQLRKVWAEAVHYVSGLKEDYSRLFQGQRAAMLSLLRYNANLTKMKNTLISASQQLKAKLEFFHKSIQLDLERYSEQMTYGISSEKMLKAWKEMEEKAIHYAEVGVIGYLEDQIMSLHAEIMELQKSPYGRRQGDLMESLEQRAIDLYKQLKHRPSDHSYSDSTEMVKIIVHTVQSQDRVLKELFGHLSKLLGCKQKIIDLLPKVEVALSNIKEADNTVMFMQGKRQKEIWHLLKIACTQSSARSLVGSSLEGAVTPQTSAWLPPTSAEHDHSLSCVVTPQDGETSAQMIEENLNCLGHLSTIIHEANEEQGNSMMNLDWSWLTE
Effect on: enzyme activity
Action: inhibitor
Concentration: 0.5 µM
Baseline: control
| SMILES | remaining activity [%] |
| --- | --- |
| NC(=O)c1ccc(N(C(N)=O)c2c(F)cccc2F)nc1-c1ccc(F)cc1F | 100 |
| CC(C)(C)n1nc(Cc2cccc3ccccc23)c2c(N)ncnc21 | 94 |
| CC[n+]1c(/C=C/N(C)c2ccccc2)n(-c2ccccc2)c2ccc(-c3nc4ccccc4s3)cc21 | 86 |
| Nc1nc(Nc2ccc(S(N)(=O)=O)cc2)nn1C(=O)c1c(F)cccc1F | 99 |
| CC(=O)c1ccc(N2CCOCC2)cc1O | 96.2 |
| Fc1ccc(-c2nc3n(c2-c2ccncc2)CCS3)cc1 | 104 |
| Cc1cc(Nc2nc(-c3ccccc3)nc3ccccc23)n[nH]1 | 96.5 |
| O=C1NC(=O)C(c2c[nH]c3ccccc23)=C1c1c[nH]c2ccccc12 | 93.4 |
| CSc1nc(-c2ccnc(N[C@@H](C)c3ccccc3)c2)c(-c2ccc(F)cc2)[nH]1 (racemic) | 98.4 |

Sample 2
Structure (SMILES): COc1cc(C(=O)N2CCC(N3CCN(C)CC3)CC2)ccc1Nc1ncc2c(n1)N(C)c1ccccc1C(=O)N2C
| tested on | test | system | conditions | inhibition |
| --- | --- | --- | --- | --- |
| SLK mouse | KiNativ profiling | mouse brain lysate | 0.1 µM, LYS1 site, with: ATP acyl phosphate probe | 2% |
| human PBMC | probe labeling, inhibitor, KiNativ profiling, item: DLkPQNLLINR | cell lysate | 1 µM, LYS2 site, with: ATP acyl-phosphate probe | -6.1% |
| PIP4K2A and PIP4K2B human | KiNativ profiling | human PBMC | 1 µM, ATP site, with: ATP acyl phosphate probe | -4.2% and -5.4% |
| MARK3 and MARK4 (mouse) | probe labelling, KiNativ, item: EVAIkIIDK peptide, LYS1 site | brain tissue lysate (mouse) | 1 µM, with: ATP acyl-phosphate probe | -12.2% |
| human PBMC | probe labeling, inhibitor, KiNativ profiling | cell lysate | concentration not given, domain 1, DFG motif site, with: ATP acyl-phosphate probe 0.1 µM | -4.9% |
| Lyn (Mus musculus, UniProt P25911) | enzyme activity, inhibitor |  | 0.1 µM | -7.6% |
| SLK mouse | KiNativ profiling | mouse brain lysate | 0.1 µM, LYS2 site, with: ATP acyl phosphate probe | 16.1% |
| human PBMC | probe labeling, inhibitor, KiNativ profiling, item: DIkTLNIFLTK | cell lysate | 1 µM, LYS2 site, with: ATP acyl-phosphate probe | 3.3% |

Sample 3
Host: mouse
Medium: microsomes or S9
Concentration: 2 µM
Time: 0.5 h
| Structure (SMILES) | remaining compound |
| --- | --- |
| CN(C)c1nc(N2CCOC3(CCCC3)C2)ncc1F | 0.85% |
| CC(=O)c1ccc(C(=O)NOCC(C)NC(=O)OC(C)(C)C)cc1 (stereo not drawn) | > 100% |
| O=C1CC(c2cccc3[nH]ccc23)c2c(n[nH]c2-c2ccccc2)N1 (stereo not drawn) | 9.94% |
| Clc1nc(Cl)n(C23CC4CC(CC(C4)C2)C3)n1 | 50.7% |
| O=C(c1c(OCC2CC2)cc(=O)n2c1CCCCC2)N1CCc2ccccc2C1 | 0.221% |
| COc1cc(S(=O)(=O)N2CCC(C(N)=O)CC2)c(OC)cc1Cl | 51.2% |
| Cc1ccc(-c2nnco2)cc1N1C(=O)NC(C)(c2ccc(S(C)(=O)=O)cc2)C1=O (stereo not drawn) | 76.7% |
| CC(C)[C@@H](NS(=O)(=O)c1c(N)cc(Cl)cc1Cl)C(=O)NOC(C)(C)C | 0% |

Sample 4
Target: Beta-1 adrenergic receptor (ADRB1, Homo sapiens, UniProt P08588)
UniProt P08588, sequence (whole entry, looked up): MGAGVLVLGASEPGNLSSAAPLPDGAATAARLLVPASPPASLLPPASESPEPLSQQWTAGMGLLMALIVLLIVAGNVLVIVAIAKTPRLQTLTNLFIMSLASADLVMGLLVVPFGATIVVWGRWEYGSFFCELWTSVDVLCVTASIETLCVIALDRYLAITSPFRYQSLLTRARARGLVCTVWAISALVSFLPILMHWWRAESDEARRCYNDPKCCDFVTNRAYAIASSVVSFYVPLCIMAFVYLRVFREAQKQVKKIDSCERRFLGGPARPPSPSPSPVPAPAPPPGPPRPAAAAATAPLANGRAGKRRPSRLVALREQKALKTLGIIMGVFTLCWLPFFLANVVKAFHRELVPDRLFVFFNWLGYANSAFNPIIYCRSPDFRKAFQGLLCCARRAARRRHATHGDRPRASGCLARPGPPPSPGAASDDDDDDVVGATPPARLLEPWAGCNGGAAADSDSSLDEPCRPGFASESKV
Effect on: binding
Method: radioligand binding
Concentration: 10 µM
| SMILES | inhibition |
| --- | --- |
| O=C(Nc1cccnn1)N1CC(CC=Cc2cncc(Oc3ccc(C(F)(F)F)cn3)n2)C1 | 1.97% |
| C[C@H](NC(=O)c1cnc2n1[C@](C)(Cc1ccc(C#N)cc1)C(=O)N2c1cc(Cl)c(F)c(Cl)c1)C(=O)NC1(c2ccccn2)CC1 | 24.1% |
| O=C(O)c1cc(-c2ccc(C3CCNCC3)cc2)c2ccc(-c3ccc(C(F)(F)F)cc3)cc2c1 | 24.7% |
| CN1C(=O)[C@@H](N2CCc3cn(Cc4ccccc4)nc3C2=O)COc2ccccc21 | 5.21% |
| CC(C)CC(=O)N1CCc2nc(-c3ccc(Br)cc3)nc(N(C)Cc3ccccc3)c2C1 | 29.5% |
| CC1=C(C#N)C(c2ccc3c(c2)c(NC(=O)c2ccccc2C)nn3C)C(C#N)=C(C)N1 | -7.79% |
| CCOC(=O)c1cc2cc(-c3cc(C(=O)NCc4ccc(C(=O)O)cc4)nn3C)ccc2[nH]1 | -5.04% |
| O=C1c2ccc(Nc3ccc(F)cc3F)cc2CCc2ccc(OC[C@H](O)CO)cc21 | 30.4% |
| CNC(=O)c1ccc(Nc2ncc(C(F)(F)F)c(NCc3nccnc3N(C)S(C)(=O)=O)n2)cc1 | -0.83% |
| CC1=C(C#N)[C@@H](c2ccc3[nH]nc(C)c3c2)C(C#N)=C(c2ccc(Cl)cc2)N1 | 4.66% |
| CN([C@@H]1CCc2c(CC(=O)O)c3cc(S(C)(=O)=O)ccc3n2C1)S(=O)(=O)c1ccc(F)cc1 | -6.18% |
| CC(=O)c1c(NS(C)(=O)=O)c2cc(-c3ccc(Cl)cc3)c(-c3ccc(Cl)cc3Cl)nc2n(C)c1=O | 25.6% |
| CC(C)(O)c1cncc(-c2nc3ccc(F)cc3n2C2CC2)c1 | 59.4% |
| Cc1cc(-n2nc(Cc3cc(F)cc(C(F)(F)F)c3)nc2C)ccc1C(N)=O | 11.8% |
| CC(=O)N1CCC(c2ccc(C(=O)NC(=N)N)cc2C(F)(F)F)CC1 | -9.29% |
| CN1CCN(C(=O)C(C)(C)c2ccc(C(=O)Nc3cn4cc(-c5ccncc5)ccc4n3)cc2)CC1 | -7.22% |
| Cc1c[nH]c2nccc(Oc3c(F)cc(Nc4cc(Cl)nc(N)n4)cc3F)c12 | 6.86% |
| O=C(Nc1ccc(-n2nc(-c3cccnc3)cc2C(F)(F)F)cn1)c1ccc(-c2ccccc2)c(F)c1 | 0.23% |
| CC(=O)Nc1nc(CN2CCC[C@H](Cc3cc(C)nc(C)c3)C2)cs1 | 4.41% |
| Cc1cc(C)c(-n2ccn3nc(-c4cccnc4)cc23)cc1NC(=O)c1cc(C#N)cc(S(F)(F)(F)(F)F)c1 | 9.41% |
| COc1cc(-c2cn(C3CCc4ccccc4N(CC(F)(F)F)C3=O)nn2)ccc1-n1ccc(C)n1 (stereo not drawn) | 3.7% |
| Cc1c(N2CCCC2)nc2ccc(Br)cc2c1C(=O)NC[C@H](CCC(=O)O)c1ccccc1Cl | 15.7% |
| CNC(=O)Nc1ccc2c(c1)[C@]1(CC2)OC(=O)N(CC(=O)N(Cc2ccc(F)cc2)[C@@H](C)C(F)(F)F)C1=O | -4.4% |

Repeated from above (sample 4):
| SMILES | inhibition |
| --- | --- |
| COc1cc(-c2cn(C3CCc4ccccc4N(CC(F)(F)F)C3=O)nn2)ccc1-n1ccc(C)n1 (stereo not drawn) | 3.7% |
| O=C(Nc1ccc(-n2nc(-c3cccnc3)cc2C(F)(F)F)cn1)c1ccc(-c2ccccc2)c(F)c1 | 0.23% |
| Cc1c(N2CCCC2)nc2ccc(Br)cc2c1C(=O)NC[C@H](CCC(=O)O)c1ccccc1Cl | 15.7% |
| CC1=C(C#N)[C@@H](c2ccc3[nH]nc(C)c3c2)C(C#N)=C(c2ccc(Cl)cc2)N1 | 4.66% |
| CC(=O)c1c(NS(C)(=O)=O)c2cc(-c3ccc(Cl)cc3)c(-c3ccc(Cl)cc3Cl)nc2n(C)c1=O | 25.6% |
